Published values of several laboratories.
“And” joins repeats or separate records; there may be more than shown. ± marks the error that the study gave. Ends that are not written are not given here.

For `Cc1cc(C)cc(-c2ccc(CN3CCCC3C(=O)NCc3cccc(F)c3)cc2)c1` (stereo not drawn), the maximum response was 78.3% (SARS-CoV-2; cytopathic effect; USA_WA1/2020; round 1, 5-point).
With `LNTDHSSSSDNIALL` the responding donors was 8% (human CD4 T cells; AIM; peptide).
For `Nc1ncnc2c([C@@H]3N[C@H](CO)[C@@H](O)[C@H]3O)c[nH]c12`, the infected cells was 3.8% (Marburg virus; viral replication, antibody staining; HeLa, Musoke; 50 µM, 24 h).
For `O=C1CC2(CCN(c3ccnc4ccccc34)CC2)CN1Cc1ccccc1`, the remaining activity was 50% (Lassa mammarenavirus; viral replication; Huh-7; 10 µM, 72 h).
`MEVTPSGTWL`: “frequency of responding donors” 40 (AIM; peptide, CD8+ T cells from PBMC, human donors; HLA-B*40:01 restricted, unit not given; reference: positive over tested donors).
`NC(=O)CCNC(=O)c1ccccc1S` has an EC50 of 3380 ± 850 nM (HIV-1; viral replication; human PBMC, subtype F 93BR029, CCR5-tropic clinical isolate).
The Vmax of `COP(=S)(OC)Oc1ccc([N+](=O)[O-])c(C)c1` is reported as 0.51 ± 0.06 nmol/min/mg protein (rat CYP3A; midazolam 4-hydroxylation; liver microsomes; concentration not given).
For `Cc1ccc2nc(Cl)c3cc(C(=O)NCCCN4CCC(C)CC4)sc3c2c1`, the maximum response was 61.3% (SARS-CoV-2; cytopathic effect; USA_WA1/2020; round 2, 5-point).
`Cc1cc(/C=C/C#N)cc(C)c1Nc1nc(Nc2ccc3cc(C#N)ccc3c2)ncc1N` gave an EC50 of no more than 2.1 nM (HIV-1; viral replication, single-round infection; RT mutant G190A).
`QPYRVVVLSF`: “frequency of responding donors” 25 (AIM; peptide, CD8+ T cells from PBMC, human donors; HLA-B*07:02 restricted, unit not given; reference: positive over tested donors).
`Cc1cc(/C=C/C#N)cc(C)c1-n1cnc2cnc(Nc3ccc(/C=C/C#N)cc3)nc21` has an EC50 of no more than 2.1 nM (HIV-1; viral replication, single-round infection; RT mutant P236L).
`Cc1cn([C@H]2C[C@H](N=[N+]=[N-])[C@@H](CO)O2)c(=O)[nH]c1=O` gave an EC50 of 4.8 ± 3.18 nM (HIV-1; viral replication; human PBMC, subtype E CMU02, CCR5-tropic clinical isolate).
`CC(Nc1nc(N2CCN(CCN)CC2)nc2ccccc12)c1ccccc1` (stereo not drawn) has an AC50 of 7940 nM (SARS-CoV-2; cytopathic effect; USA_WA1/2020).
With `CC[C@H](C)[C@H](NC(=O)[C@H](Cc1ccc(O)cc1)NC(=O)[C@H](Cc1c[nH]c2ccccc12)NC(=O)[C@H](CC(C)C)NC(C)=O)C(=O)N[C@@H](CCCCN)C(N)=O` the transition enthalpy was 1.1 kcal/mol (DSC; SOPC/cholesterol 7/3 bilayers; 10 mol%, pH 7.40).
`QPLRKLCILHRNPGRCYQKIPAFYYNQKKKQCEGFTWSGCGGNSNRFKTIEECRRTCIRK (dendrotoxin I; ends and bridges not checked; cysteine pairing not given here; sequence looked up)` — result for “inter-DTX periods ended by substate”: 95.6% (maxi-KCa channel, rat muscle; channel block, planar bilayer single-channel; 460 nM, with: BPTI).
The EC50 of `CCCC(=O)OCSc1ccccc1C(=O)NCCC(N)=O` is reported as 3520 ± 2620 nM (HIV-1; viral replication; human PBMC, subtype F 93BR019, CXCR4-tropic clinical isolate).
For `Cc1cc(/C=C/C#N)cc(C)c1-n1cnc2cnc(Nc3ccc4cc(C#N)ccc4c3)nc21`, the EC50 was no more than 2.1 nM (HIV-1; viral replication, single-round infection; RT mutant P236L).
For `CCN(CC)Cc1ccc(Nc2ccnc3cc(Cl)ccc23)cc1O`, the efficacy was 97.2% (SARS-CoV-2; cytopathic effect; USA_WA1/2020; round 2, 5-point).
`COc1ccc2cc3[n+](cc2c1OC)CCc1cc2c(cc1-3)OCO2` gave an inhibition of 96.7 ± 1.7% (SARS-CoV-2 spike protein; Vero C1008; 20 µg/mL).
The remaining activity of `CNC(=O)[C@@H](NC(=O)[C@H](CC(C)C)[C@H](O)C(=O)NO)C(C)(C)C` is reported as 91.6% and 88.6% and 84.1% (Daboia russelii venom proteases (SVMP); protease activity, inhibitor; RJ population; 1 µM, with: azocasein substrate; reference: venom alone).
The maximal response of `Cc1ccc(C(C)Nc2nc(N3CCNCC3)nc3ccccc23)cc1` (stereo not drawn) is reported as 89.4% (SARS-CoV-2; cytopathic effect, cell-based CPE; USA_WA1/2020; round 2, 5-point dilution).
For `GSSGVVNPVMEPIYD`, the responding donors was 7% (human CD4 T cells; AIM; peptide).
`Cn1c(Cn2ccc(C(F)(F)F)c(Oc3cc(Cl)cc(C#N)c3)c2=O)n[nH]c1=O` has an EC50 of greater than 100 nM (HIV-1; viral replication, single-round infection; RT mutant V106A/F227L/L234I).
`AQYTSALLAGTITSG` has a responding donors of 9% (human CD4 T cells; AIM; peptide).
`O=C1Nc2ccc(Cl)cc2[C@@](C#CC2CC2)(C(F)(F)F)O1` gave an EC50 of 0.3 ± 0.03 nM (HIV-1; viral replication, single-round infection; RT mutant V106A/L234I).
`COc1ccc(CCNC(=O)c2cc(Nc3ccccc3)nc3ccccc23)cc1OC` gave a maximum response of 46.4% (SARS-CoV-2; cytopathic effect; USA_WA1/2020; round 1, 5-point).
The responding donors of `LPYGANKDGIIWVAT` is reported as 14% (human CD4 T cells; AIM; peptide).
With `CCc1c(C(=O)C(N)=O)c2c(OCC(=O)O)cccc2n1Cc1ccccc1` the viability difference was 14.7% (C2C12; 10 µM, with: WB venom; reference: venom alone).
With `COC(C)(C)C(=O)N1CC(=O)N[C@@H](CC(C)C)c2nc(cs2)C(=O)N[C@@H](Cc2ccccc2)c2nc(C)nn2CC(=O)N[C@@H](C(C)C)C1` the remaining activity was 101% (Lassa mammarenavirus; viral replication; Huh-7; 10 µM, 72 h).
With `NPVLPFNDGVYFAST` the responding donors was 9% (human CD4 T cells; AIM; peptide).
For `Cc1nc2n(n1)CC(=O)N[C@@H](C(C)C)CN(C(=O)c1n[nH]c(=O)[nH]1)CC(=O)N[C@@H](CC(C)C)c1nc(cs1)C(=O)N[C@H]2Cc1ccccc1`, the remaining activity was 107% (Lassa mammarenavirus; viral replication; Huh-7; 10 µM, 72 h).
`AENSVAYSNNSIAIP` gave a responding donors of 17% (human CD4 T cells; AIM; peptide).
The remaining activity of `Cc1ccccc1C1(O)CCN(C(=O)c2cnn[nH]2)C1` (stereo not drawn) is reported as 39% (Lassa mammarenavirus; viral replication; Huh-7; 10 µM, 72 h).
The maximal inhibition of `O=C(CCC1CCN(Cc2ccccc2)CC1)c1ccc2c(c1)NCCCC2.O=C(O)/C=C/C(=O)O` is reported as 91% (HeLa; Ebola VLP entry).
For `O=C(CCC1CCN(C(=O)CC2=CCCCC2)CC1)N1CCC(Cc2ccccc2)CC1`, the remaining activity was 42% (Lassa mammarenavirus; viral replication; Huh-7; 10 µM, 72 h).
`CC(Nc1nc(N2CCNCC2C)nc2ccccc12)c1ccccc1` (stereo not drawn) gave an efficacy of 112% (SARS-CoV-2; cytopathic effect, cell-based CPE; USA_WA1/2020; round 2, 5-point dilution).
With `Cc1cn2cc(C(=O)N3CCN(c4nc5ccccc5s4)CC3)ccc2n1` the remaining activity was 48% (Lassa mammarenavirus; viral replication; Huh-7; 10 µM, 72 h).
The EC50 of `Cc1cc(/C=C/C#N)cc(C)c1Nc1ccnc(Nc2ccc(C#N)cc2)n1` is reported as 6.2 ± 1.6 nM (HIV-1; viral replication, single-round infection; RT mutant K101P).
With `COc1c(F)cccc1C(=O)N1CC(=O)N[C@@H](CC(C)C)c2nc(cs2)C(=O)N[C@@H](Cc2ccccc2)c2nc(C)nn2CC(=O)N[C@@H](C(C)C)C1` the remaining activity was 92% (Lassa mammarenavirus; viral replication; Huh-7; 10 µM, 72 h).
`Oc1ccc2[nH]cc(CCCCN3CC=C(c4ccccc4)CC3)c2c1` has an IC50 of 15300 nM (HeLa; Ebola VLP entry).
`Clc1ccc2nc(N3CCC(NCCc4cccnc4)CC3)sc2c1` has an efficacy of 64% (SARS-CoV-2; cytopathic effect; USA_WA1/2020; retest, 8-point, duplicates).
`CCC(NC(=O)c1cc(-c2ccccc2O)n[nH]1)c1cc(C)ccn1` (stereo not drawn) has a remaining activity of 36% (Lassa mammarenavirus; viral replication; Huh-7; 10 µM, 72 h).

Some of these lines once more:
`QPYRVVVLSF`: “frequency of responding donors” 25 (AIM; peptide, CD8+ T cells from PBMC, human donors; HLA-B*07:02 restricted, unit not given; reference: positive over tested donors).
With `NPVLPFNDGVYFAST` the responding donors was 9% (human CD4 T cells; AIM; peptide).
`AENSVAYSNNSIAIP` gave a responding donors of 17% (human CD4 T cells; AIM; peptide).
`Oc1ccc2[nH]cc(CCCCN3CC=C(c4ccccc4)CC3)c2c1` has an IC50 of 15300 nM (HeLa; Ebola VLP entry).
`MEVTPSGTWL`: “frequency of responding donors” 40 (AIM; peptide, CD8+ T cells from PBMC, human donors; HLA-B*40:01 restricted, unit not given; reference: positive over tested donors).
